Measurements pooled from the literature.
Numbered parts are unrelated; each lists some results of a single study.

Series 1 — technique: RNA Bind-n-Seq; form: RNA; matrix: in vitro; concentration: 365 nM; baseline: no-protein control; direction: higher = stronger binding
Target: RNA binding protein fox-1 homolog 2, RRM domain, GST-SBP tag (RBFOX2, Homo sapiens, UniProt O43251-10, residues 100-194)
Notes: natural RNA segment, single round, ends assumed
Shared flanks, not repeated: GGGAGUUCUACAGUCCGACGAUC … UGGAAUUCUCGGGUGCCAA
Residues (chain): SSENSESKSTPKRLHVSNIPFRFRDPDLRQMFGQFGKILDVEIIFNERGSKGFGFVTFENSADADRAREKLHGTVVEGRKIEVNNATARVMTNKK
Oligonucleotide | RBNS enrichment (R)
AGUUUGGCUACAGUCGUAAGGAGAACUUGCCUGGCCCCCAGCACCGCUGAUGCCAGACCUUCUCCCGCUGCCAGGAAGCUGUUGUCGACUCCAGACCUGGUUGAGGGAGU | 0.687
CUGACACAAAGACGGGAAACCCAGUCGGCCUCUAGUUUUCUGCUGCUCUCAGGCAGCACAUCUUGCAAACAGUUUGGAGAAGGAGGCUGUUUUUGUUGAAUCGAGUUCUC | 0.465
UUGCAGGUGCCAAUGACUAACUUUUUGAAUUCUAUGUUGGCAUUAACAAUAAAGCAUUUUGCAAACACUGGUUAUAACUGUCUUUAUGGAGGCAGCUCUGGGAAUGGUGA | 0.969
CCCUGAGGUGCUGCUGCUGGGUCUGUCUUGGCUCUGGGGUGUGCUGGGAGGGUCACCAGGUCCCUUUUCCUUCCUGUGCCCUCUGAAAGCUAAGUGUCUGUGUGGCUGUG | 0.575
UCAGUGCAGUUACAGACAUGCGUUUGAUUCCACAGUUUUGUUUCAUUUCAAAAGAAUUCCCCUCACAGGAGGAUGGCUGAGCAUCAAAGGAGGACAACCAUCUAUAACUU | 0.389
UCCAGCUGUCCCUGUGAGUUAUCCUGGACAUUUCGAUGGUUUUUGGUAAGGCCAAACUCUGAUAAGCAAAACAGAGAAUACUGACGUAUACUUAACCAUAUGUGUAACUG | 0.197
UUUUCCCUUACAGUUCCUGCUUGGUCCCACCCACUGAAGUAGCUCAUCGUAGUGCGGGCCGUAUUAGAGGCAGUGGGGUACGUUAGACUCAGAUGGAAAAGUAUUCUAGG | 0.39
GCACGUCUUUAAUCCCAGCACUUGGGAGGCAGGCAGAGAUAGGCGGAUUUCUGAGUUUGAGGCCAGCCUGGUCUACAGAGUGAGUUCGAGGACAACCAGGGCUACACAGA | 0.281
AGAAGAAAGUGUGCCAUGAGAGAAAAACUUAAGGAGUUUUGAAAAGUAAUGCAAAUAACAAAACUGCAACACUAUUUUUAAAAAGAUAAAUAUCUGAGUUAAAAUUACUG | 0.975

Series 2 — technique: protein binding microarray; form: double-stranded DNA, one strand shown; matrix: in vitro; concentration: not given; baseline: not given; direction: higher = stronger binding
Target: Histone acetyltransferase KAT6A, winged helix 1, GST fusion (KAT6A, Homo sapiens, UniProt Q92794, residues 1-85)
Notes: 8-mer, flanks averaged, mean of 2 arrays, mostly near background
Residues (chain): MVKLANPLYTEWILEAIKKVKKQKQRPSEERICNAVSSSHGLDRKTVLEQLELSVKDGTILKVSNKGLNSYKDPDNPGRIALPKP
Oligonucleotide | E-score
ACCAGGCT | -0.135
CCCTGCCG | 0.246
AGCGAGGA | -0.0282
ATAAGAAT | -0.0595
TATGGAAA | -0.232
GGGGTCCA | -0.0115
ATCCTCAA | -0.115
CGAAGATA | -0.191
CAAACACG | 0.14

Series 3 — technique: protein-binding microarray; form: double-stranded DNA, one strand shown; matrix: in vitro; concentration: 2200 nM top; notes: 60-bp whole probe; with: salmon DNA 0.4 mg/ml; baseline: random background probes; direction: higher = stronger binding; shared flanks, not repeated: GCCTAGCAC … GTCTTGATTCGCTTGACGCTGCTG
Target: Interferon regulatory factor 7, full length, phosphomimetic (IRF7, Homo sapiens, UniProt Q92985, residues 1-503, S471D/S472D/S475D/S476D/S477D/S483D/S484D/S487D)
Chain of UniProt Q92985 (whole entry, unmodified, looked up): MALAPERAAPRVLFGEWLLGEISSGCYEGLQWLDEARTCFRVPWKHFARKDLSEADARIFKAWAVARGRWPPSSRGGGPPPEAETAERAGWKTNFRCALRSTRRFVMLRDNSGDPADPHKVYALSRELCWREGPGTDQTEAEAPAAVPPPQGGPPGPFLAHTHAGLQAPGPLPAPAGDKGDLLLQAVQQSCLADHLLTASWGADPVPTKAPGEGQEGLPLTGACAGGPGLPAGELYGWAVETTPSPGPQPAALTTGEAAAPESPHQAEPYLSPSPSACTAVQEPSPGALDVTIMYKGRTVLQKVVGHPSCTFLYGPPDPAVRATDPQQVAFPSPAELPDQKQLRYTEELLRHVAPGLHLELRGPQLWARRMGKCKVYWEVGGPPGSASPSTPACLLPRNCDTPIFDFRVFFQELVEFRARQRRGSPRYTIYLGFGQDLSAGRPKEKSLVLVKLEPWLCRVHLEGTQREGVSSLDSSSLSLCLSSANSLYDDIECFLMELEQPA
Oligonucleotide | fitted relative affinity [z-score]
TCAAATAATCTTTTCACACTGTGCTAG | 0.252
TTAGGACTGGTTATCCTTTAGTGCTAG | 0.192
GACAGTCTCCTTATCCTGACGTGCTAG | 1.47
GACGGTTCCGATTTCGGGACGTGCTAG | 2.48
TTAGATATCGGGTTTCGAGTAGTGCTA | 1.71
GACGACTTCAGACTGGAGACGTGCTAG | -0.21
GACGGACTAGGACTGGGGACGTGCTAG | -0.552
GACGGTTTCGGGTTTCGAGACGTGCTA | 8.99
ATTTACATGCATATAGTATAGTGCTAG | 0.616

Further values, each from its own experiment
Molecule | target | assay | system | conditions | scale | measurement | result
PhoQ, residues 284 288 289 292 302 303 NLSRDF | PhoP, residues 12 14 15 18 19 VQGLL (Escherichia coli, UniProt P23836) | Sort-seq, item: YFP reporter | E. coli | PhoQ-PhoP variant library, with: 10 µM Mg2+ | baseline: high Mg2+ state, higher = stronger signaling | fold induction | 17.4

Excerpt of the above (series 1):
Oligonucleotide | RBNS enrichment (R)
UUGCAGGUGCCAAUGACUAACUUUUUGAAUUCUAUGUUGGCAUUAACAAUAAAGCAUUUUGCAAACACUGGUUAUAACUGUCUUUAUGGAGGCAGCUCUGGGAAUGGUGA | 0.969
AGAAGAAAGUGUGCCAUGAGAGAAAAACUUAAGGAGUUUUGAAAAGUAAUGCAAAUAACAAAACUGCAACACUAUUUUUAAAAAGAUAAAUAUCUGAGUUAAAAUUACUG | 0.975
